Results from different studies.
Numbered parts are unrelated; each lists some results of a single study. Positions count from the first letter of the parent shown.
Chain of UniProt P51957 (whole entry, looked up): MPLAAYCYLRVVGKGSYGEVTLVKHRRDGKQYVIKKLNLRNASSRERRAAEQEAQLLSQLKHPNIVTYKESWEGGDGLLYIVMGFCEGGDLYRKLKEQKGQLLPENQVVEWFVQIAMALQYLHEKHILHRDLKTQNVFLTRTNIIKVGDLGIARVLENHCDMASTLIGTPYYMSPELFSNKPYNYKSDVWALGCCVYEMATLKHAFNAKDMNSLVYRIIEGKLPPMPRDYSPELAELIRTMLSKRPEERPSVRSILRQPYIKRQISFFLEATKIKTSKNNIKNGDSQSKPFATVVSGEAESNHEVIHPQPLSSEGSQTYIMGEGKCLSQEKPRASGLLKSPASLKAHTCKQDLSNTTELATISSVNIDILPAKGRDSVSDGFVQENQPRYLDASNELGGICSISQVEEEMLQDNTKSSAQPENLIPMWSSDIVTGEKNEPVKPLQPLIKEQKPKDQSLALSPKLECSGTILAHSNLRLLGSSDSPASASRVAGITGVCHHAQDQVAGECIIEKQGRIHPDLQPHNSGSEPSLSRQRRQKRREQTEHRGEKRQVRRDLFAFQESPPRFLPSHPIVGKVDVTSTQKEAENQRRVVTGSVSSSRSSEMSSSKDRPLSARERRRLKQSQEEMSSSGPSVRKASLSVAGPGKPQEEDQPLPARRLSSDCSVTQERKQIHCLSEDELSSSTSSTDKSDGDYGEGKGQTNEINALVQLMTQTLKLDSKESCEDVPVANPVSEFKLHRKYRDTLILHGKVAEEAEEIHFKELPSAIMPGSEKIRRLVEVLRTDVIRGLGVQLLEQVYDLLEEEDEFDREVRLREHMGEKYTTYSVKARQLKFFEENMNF
Chain of UniProt P07948 (whole entry, looked up): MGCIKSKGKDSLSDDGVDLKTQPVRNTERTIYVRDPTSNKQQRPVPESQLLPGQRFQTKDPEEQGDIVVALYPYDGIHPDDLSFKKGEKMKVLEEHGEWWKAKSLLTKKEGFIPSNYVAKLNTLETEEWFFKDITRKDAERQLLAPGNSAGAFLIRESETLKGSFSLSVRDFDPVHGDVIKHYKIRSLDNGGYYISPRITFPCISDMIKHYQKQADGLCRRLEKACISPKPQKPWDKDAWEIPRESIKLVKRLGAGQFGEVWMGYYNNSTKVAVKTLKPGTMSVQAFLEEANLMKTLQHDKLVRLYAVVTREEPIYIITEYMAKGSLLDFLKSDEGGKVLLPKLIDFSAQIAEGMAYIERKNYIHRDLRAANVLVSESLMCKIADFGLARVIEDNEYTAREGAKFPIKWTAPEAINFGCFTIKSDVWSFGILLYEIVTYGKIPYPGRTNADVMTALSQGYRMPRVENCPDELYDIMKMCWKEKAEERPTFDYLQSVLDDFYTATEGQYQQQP
Chain of UniProt P07949 (whole entry, unmodified, looked up): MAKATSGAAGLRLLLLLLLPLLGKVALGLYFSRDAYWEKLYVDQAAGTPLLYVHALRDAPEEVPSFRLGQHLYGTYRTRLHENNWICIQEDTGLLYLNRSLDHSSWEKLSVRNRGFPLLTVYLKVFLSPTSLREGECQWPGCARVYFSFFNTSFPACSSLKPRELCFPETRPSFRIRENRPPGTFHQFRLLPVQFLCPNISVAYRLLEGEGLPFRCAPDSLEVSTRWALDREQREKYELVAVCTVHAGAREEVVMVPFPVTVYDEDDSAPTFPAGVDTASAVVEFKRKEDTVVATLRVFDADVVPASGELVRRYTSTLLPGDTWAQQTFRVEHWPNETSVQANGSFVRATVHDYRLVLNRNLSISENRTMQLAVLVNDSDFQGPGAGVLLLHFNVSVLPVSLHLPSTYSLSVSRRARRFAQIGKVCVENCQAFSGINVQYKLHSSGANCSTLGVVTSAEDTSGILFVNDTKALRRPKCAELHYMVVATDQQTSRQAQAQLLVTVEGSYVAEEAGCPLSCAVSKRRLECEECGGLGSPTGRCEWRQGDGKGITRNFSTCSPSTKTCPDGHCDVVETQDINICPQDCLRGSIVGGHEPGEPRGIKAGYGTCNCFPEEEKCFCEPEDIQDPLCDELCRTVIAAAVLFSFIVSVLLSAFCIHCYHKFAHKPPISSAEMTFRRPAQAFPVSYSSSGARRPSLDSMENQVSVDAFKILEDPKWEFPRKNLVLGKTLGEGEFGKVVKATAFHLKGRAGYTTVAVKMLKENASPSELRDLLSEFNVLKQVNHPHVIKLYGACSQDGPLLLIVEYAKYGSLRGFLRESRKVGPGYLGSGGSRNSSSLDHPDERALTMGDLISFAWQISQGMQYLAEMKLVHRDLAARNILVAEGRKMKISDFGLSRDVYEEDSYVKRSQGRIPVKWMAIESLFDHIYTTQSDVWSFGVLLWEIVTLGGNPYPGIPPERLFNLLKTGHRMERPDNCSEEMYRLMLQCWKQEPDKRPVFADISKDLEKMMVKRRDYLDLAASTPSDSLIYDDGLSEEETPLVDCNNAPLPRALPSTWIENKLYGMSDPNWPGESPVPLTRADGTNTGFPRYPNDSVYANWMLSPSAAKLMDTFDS
Chain of UniProt Q13557 (whole entry, looked up): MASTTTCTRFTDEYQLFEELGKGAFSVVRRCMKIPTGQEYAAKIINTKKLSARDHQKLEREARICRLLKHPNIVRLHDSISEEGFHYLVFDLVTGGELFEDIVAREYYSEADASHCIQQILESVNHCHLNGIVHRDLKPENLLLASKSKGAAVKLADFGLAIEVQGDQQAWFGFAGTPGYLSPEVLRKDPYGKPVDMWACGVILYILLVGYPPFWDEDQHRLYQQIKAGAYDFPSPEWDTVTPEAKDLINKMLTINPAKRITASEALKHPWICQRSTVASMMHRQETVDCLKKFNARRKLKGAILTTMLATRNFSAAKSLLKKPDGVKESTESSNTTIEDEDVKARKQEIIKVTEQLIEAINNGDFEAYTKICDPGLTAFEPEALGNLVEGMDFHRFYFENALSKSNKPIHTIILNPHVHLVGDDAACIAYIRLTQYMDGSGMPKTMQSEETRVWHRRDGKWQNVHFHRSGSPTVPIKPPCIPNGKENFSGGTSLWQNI
Chain of UniProt P51451 (whole entry, looked up): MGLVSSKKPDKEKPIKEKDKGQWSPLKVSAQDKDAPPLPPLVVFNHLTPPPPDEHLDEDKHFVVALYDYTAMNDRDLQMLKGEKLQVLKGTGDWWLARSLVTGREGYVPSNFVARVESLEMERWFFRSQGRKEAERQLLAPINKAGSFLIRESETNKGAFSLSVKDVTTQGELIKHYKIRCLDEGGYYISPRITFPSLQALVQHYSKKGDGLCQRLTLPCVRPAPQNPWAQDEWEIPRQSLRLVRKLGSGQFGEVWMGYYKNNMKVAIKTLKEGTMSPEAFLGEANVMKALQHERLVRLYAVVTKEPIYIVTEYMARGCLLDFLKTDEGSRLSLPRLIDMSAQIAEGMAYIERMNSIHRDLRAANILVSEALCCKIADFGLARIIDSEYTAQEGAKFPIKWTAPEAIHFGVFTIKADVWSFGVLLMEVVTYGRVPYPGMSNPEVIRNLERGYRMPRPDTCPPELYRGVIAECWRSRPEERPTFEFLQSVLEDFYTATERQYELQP
Chain of UniProt P57059 (whole entry, looked up): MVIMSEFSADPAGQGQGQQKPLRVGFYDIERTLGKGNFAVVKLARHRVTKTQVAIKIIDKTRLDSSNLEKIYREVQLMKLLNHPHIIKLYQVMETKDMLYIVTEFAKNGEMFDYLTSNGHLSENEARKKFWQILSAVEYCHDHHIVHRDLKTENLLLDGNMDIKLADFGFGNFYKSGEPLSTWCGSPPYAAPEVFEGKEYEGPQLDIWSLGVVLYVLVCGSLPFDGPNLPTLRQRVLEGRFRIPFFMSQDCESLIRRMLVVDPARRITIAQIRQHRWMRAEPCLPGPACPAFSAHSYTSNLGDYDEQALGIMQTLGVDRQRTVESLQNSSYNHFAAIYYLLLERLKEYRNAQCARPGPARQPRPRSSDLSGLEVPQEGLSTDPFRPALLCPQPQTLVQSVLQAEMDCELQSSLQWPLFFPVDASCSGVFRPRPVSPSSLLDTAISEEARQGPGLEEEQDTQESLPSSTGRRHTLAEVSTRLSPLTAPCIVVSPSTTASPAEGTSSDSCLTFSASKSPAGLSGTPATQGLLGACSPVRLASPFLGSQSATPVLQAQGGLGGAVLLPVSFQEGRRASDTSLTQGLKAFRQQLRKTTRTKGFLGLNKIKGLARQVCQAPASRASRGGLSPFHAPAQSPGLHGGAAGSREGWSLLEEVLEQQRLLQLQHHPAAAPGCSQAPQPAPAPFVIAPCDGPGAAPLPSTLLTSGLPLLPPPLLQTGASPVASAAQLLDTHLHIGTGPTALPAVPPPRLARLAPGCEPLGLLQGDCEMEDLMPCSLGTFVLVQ

Sample 1
Target: Max-binding protein MNT, bHLH-zipper, MAX partner unstated (MNT, Homo sapiens, UniProt Q99583, residues 220-300)
Technique: protein-binding microarray
Molecule type: double-stranded DNA, one strand shown
Medium: in vitro
Concentration: not given
Setting: k-mer, scored over probes, only values ≥0.25
Reading: higher = stronger binding
Target sequence (chain): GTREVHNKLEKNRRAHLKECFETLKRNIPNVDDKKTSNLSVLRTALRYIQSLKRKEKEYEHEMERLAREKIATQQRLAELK
Strand	E-score
CTCCATGC	0.389
ACGAGGCT	0.259
ACGTTCCC	0.263
ACGCGTGA	0.424
GCGTGCGA	0.391
GCATGAGA	0.268
ACCATGCA	0.35
GGGCACAC	0.255

Sample 2
Target: Ribosomal protein S6 kinase alpha-3 (RPS6KA3, Homo sapiens, UniProt P51812)
Chain of UniProt P51812 (whole entry, looked up): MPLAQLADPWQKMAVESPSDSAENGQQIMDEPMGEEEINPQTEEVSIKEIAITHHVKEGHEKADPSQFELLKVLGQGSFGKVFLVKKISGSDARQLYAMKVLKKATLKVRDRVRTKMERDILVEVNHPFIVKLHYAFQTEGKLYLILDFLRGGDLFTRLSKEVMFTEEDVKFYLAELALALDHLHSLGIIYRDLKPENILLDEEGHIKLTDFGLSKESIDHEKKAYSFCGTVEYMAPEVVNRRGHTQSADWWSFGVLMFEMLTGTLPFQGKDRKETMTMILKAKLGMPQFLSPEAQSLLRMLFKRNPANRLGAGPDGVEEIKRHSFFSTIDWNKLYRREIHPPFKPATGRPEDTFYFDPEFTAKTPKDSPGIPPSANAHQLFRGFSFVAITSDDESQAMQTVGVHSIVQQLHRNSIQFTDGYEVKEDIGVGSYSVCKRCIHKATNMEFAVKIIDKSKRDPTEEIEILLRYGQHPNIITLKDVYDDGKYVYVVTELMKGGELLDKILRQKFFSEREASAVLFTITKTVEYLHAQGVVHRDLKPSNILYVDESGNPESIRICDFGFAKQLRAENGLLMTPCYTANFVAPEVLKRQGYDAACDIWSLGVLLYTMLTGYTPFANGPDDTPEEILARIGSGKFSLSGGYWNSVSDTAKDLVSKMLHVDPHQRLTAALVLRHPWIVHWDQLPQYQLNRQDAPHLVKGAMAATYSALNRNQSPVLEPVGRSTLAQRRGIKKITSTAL
Read-out: enzyme activity
Mode: inhibitor
Concentration: 0.5 µM
Reference: control
Compound	remaining activity [%]
OCC(O)CCON=C1C(c2c(O)[nH]c3ccccc23)=Nc2ccccc21 (stereo not drawn)	18.3
O=C1NC(=O)C(c2cn(CCCO)c3ncccc23)=C1c1cnccn1	91.3
Nc1ccc2ncnc(NCCc3ccc(Oc4ccccc4)cc3)c2c1	101
COc1ccc(OC)c2c(=S)c3ccccc3[nH]c12	108
O=c1c2ccccc2[nH]c(=S)n1CCN1CCC(=C(c2ccc(F)cc2)c2ccc(F)cc2)CC1	99.8
COc1cc2nccc(Oc3ccc(NC(=S)NC(=O)c4ccccc4C)cc3)c2cc1OC	86.9
NCCNc1ncc(C(N)=O)c(Nc2cccc(C(F)(F)F)c2)n1	72.4
COc1ccc(C(=O)Nc2sc3c(c2C(N)=O)CCCC3)cc1OC	93
Cn1c2ccccc2c2c3c(c4c5ccccc5n(CCC#N)c4c21)CNC3=O	5.93
O=C(O)c1ccc2c3c1cccc3c(=O)n1c3ccccc3nc21	95.5
Cn1sc(=O)n(Cc2ccccc2)c1=O	97.5
N#CC(C#N)=C(N)/C(C#N)=C/c1ccc(O)cc1	94.6
Cc1nc(-c2ccccc2)c(-c2ccncc2)o1	103
O=C1NC(=O)C(c2cn(CCCn3ccnc3)c3ccccc23)=C1Nc1ccccc1	3.85

Sample 3
Variant: T173D
Target: ABI1, truncated, D143A, DHFR fusion (Arabidopsis thaliana)
Technique: DHFR PCA, deep sequencing
Medium: yeast
Setting: methotrexate growth selection, single substitutions
Reference: wild-type fitted maximum
Reading: higher = stronger binding
Starting sequence: PYL1, truncated, DHFR fusion (Arabidopsis thaliana); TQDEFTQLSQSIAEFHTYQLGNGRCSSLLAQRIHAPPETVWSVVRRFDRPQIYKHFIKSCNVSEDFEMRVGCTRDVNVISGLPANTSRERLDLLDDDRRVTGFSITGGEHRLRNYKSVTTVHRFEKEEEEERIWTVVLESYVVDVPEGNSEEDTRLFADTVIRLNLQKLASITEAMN
with	relative binding score
(+)-ABA 200 µM	-11.1%
(+)-ABA 2500 µM	45.3%
(+)-ABA 4.8 µM	1.92%
(+)-ABA 710 µM	15.1%
(+)-ABA 0.39 µM	-38.6%
(+)-ABA 1.4 µM	-11.7%

Sample 4
Structure (SMILES): CN(C)CC#Cc1ccc(OCCCc2sc(N3CCc4cccc(C(=O)Nc5nc6ccccc6s5)c4C3)nc2C(=O)O)c(F)c1
Concentration: 1 µM
target	read-out	technique	remaining binding [%]
Serine/threonine-protein kinase 32A (STK32A, Homo sapiens, UniProt Q8WU08)	cell-free assay	competition with immobilised ligand	100
Vascular endothelial growth factor receptor 2 (KDR, Homo sapiens, UniProt P35968)	cell-free assay	competition with immobilised ligand	100
Tyrosine-protein kinase Lyn (LYN, Homo sapiens, UniProt P07948)	cell-free assay	competition with immobilised ligand	100
Receptor-type tyrosine-protein kinase FLT3 (FLT3, Homo sapiens, UniProt P36888, D835V)	cell-free assay	competition with immobilised ligand	100
Homeodomain-interacting protein kinase 3 (HIPK3, Homo sapiens, UniProt Q9H422)	cell-free assay	competition with immobilised ligand	87
Tyrosine-protein kinase Blk (BLK, Homo sapiens, UniProt P51451)	cell-free assay	competition with immobilised ligand	92
Proto-oncogene tyrosine-protein kinase receptor Ret (RET, Homo sapiens, UniProt P07949, M918T)	cell-free assay	competition with immobilised ligand	100
Ephrin type-B receptor 2 (EPHB2, Homo sapiens, UniProt P29323)	cell-free assay	competition with immobilised ligand	100
Serine/threonine-protein kinase SIK1 (SIK1, Homo sapiens, UniProt P57059)	–	competition binding	100
Serine/threonine-protein kinase Nek4 (NEK4, Homo sapiens, UniProt P51957)	cell-free assay	competition with immobilised ligand	98
Epidermal growth factor receptor (EGFR, Homo sapiens, UniProt P00533, A750P/del747-749)	cell-free assay	competition with immobilised ligand	89
Receptor-interacting serine/threonine-protein kinase 4 (RIPK4, Homo sapiens, UniProt P57078)	cell-free assay	competition with immobilised ligand	100
Epidermal growth factor receptor (EGFR, Homo sapiens, UniProt P00533, L858R/T790M)	cell-free assay	competition with immobilised ligand	100
Calcium/calmodulin-dependent protein kinase type II subunit delta (CAMK2D, Homo sapiens, UniProt Q13557)	cell-free assay	competition with immobilised ligand	72

Excerpt of the above (sample 4):
target	read-out	technique	remaining binding [%]
Ephrin type-B receptor 2 (EPHB2, Homo sapiens, UniProt P29323)	cell-free assay	competition with immobilised ligand	100
Serine/threonine-protein kinase Nek4 (NEK4, Homo sapiens, UniProt P51957)	cell-free assay	competition with immobilised ligand	98
Receptor-type tyrosine-protein kinase FLT3 (FLT3, Homo sapiens, UniProt P36888, D835V)	cell-free assay	competition with immobilised ligand	100
